Assay results of several laboratories.
Each numbered part is a random draw from the data of one study; scales do not carry over between parts.
Chain of UniProt P10721 (whole entry, unmodified, looked up): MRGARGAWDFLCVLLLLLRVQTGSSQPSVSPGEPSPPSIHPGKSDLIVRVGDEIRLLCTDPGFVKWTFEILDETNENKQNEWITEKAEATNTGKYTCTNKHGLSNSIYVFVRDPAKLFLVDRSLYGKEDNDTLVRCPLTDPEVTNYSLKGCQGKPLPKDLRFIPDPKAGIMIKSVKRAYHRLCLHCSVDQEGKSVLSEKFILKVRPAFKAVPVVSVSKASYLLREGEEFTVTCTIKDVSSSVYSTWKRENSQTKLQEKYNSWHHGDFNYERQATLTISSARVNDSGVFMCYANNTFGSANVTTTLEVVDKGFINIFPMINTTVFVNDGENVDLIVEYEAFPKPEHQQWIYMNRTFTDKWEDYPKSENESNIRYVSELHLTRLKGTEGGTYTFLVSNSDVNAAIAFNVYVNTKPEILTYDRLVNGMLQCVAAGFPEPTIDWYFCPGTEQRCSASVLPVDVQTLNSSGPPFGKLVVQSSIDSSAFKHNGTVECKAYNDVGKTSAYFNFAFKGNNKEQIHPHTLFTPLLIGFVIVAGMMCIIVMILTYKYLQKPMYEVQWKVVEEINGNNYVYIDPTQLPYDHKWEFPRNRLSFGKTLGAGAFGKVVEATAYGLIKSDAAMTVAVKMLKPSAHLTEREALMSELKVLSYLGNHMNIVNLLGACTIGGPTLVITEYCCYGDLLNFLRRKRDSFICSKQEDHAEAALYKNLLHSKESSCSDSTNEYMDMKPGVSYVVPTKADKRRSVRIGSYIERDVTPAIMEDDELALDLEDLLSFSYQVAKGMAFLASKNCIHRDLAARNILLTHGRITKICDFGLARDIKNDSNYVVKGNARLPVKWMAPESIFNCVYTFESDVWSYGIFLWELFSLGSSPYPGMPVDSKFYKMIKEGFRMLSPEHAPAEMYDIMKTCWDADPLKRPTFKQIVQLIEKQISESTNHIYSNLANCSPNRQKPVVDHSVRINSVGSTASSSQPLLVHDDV
Chain of UniProt Q5S007 (whole entry, looked up): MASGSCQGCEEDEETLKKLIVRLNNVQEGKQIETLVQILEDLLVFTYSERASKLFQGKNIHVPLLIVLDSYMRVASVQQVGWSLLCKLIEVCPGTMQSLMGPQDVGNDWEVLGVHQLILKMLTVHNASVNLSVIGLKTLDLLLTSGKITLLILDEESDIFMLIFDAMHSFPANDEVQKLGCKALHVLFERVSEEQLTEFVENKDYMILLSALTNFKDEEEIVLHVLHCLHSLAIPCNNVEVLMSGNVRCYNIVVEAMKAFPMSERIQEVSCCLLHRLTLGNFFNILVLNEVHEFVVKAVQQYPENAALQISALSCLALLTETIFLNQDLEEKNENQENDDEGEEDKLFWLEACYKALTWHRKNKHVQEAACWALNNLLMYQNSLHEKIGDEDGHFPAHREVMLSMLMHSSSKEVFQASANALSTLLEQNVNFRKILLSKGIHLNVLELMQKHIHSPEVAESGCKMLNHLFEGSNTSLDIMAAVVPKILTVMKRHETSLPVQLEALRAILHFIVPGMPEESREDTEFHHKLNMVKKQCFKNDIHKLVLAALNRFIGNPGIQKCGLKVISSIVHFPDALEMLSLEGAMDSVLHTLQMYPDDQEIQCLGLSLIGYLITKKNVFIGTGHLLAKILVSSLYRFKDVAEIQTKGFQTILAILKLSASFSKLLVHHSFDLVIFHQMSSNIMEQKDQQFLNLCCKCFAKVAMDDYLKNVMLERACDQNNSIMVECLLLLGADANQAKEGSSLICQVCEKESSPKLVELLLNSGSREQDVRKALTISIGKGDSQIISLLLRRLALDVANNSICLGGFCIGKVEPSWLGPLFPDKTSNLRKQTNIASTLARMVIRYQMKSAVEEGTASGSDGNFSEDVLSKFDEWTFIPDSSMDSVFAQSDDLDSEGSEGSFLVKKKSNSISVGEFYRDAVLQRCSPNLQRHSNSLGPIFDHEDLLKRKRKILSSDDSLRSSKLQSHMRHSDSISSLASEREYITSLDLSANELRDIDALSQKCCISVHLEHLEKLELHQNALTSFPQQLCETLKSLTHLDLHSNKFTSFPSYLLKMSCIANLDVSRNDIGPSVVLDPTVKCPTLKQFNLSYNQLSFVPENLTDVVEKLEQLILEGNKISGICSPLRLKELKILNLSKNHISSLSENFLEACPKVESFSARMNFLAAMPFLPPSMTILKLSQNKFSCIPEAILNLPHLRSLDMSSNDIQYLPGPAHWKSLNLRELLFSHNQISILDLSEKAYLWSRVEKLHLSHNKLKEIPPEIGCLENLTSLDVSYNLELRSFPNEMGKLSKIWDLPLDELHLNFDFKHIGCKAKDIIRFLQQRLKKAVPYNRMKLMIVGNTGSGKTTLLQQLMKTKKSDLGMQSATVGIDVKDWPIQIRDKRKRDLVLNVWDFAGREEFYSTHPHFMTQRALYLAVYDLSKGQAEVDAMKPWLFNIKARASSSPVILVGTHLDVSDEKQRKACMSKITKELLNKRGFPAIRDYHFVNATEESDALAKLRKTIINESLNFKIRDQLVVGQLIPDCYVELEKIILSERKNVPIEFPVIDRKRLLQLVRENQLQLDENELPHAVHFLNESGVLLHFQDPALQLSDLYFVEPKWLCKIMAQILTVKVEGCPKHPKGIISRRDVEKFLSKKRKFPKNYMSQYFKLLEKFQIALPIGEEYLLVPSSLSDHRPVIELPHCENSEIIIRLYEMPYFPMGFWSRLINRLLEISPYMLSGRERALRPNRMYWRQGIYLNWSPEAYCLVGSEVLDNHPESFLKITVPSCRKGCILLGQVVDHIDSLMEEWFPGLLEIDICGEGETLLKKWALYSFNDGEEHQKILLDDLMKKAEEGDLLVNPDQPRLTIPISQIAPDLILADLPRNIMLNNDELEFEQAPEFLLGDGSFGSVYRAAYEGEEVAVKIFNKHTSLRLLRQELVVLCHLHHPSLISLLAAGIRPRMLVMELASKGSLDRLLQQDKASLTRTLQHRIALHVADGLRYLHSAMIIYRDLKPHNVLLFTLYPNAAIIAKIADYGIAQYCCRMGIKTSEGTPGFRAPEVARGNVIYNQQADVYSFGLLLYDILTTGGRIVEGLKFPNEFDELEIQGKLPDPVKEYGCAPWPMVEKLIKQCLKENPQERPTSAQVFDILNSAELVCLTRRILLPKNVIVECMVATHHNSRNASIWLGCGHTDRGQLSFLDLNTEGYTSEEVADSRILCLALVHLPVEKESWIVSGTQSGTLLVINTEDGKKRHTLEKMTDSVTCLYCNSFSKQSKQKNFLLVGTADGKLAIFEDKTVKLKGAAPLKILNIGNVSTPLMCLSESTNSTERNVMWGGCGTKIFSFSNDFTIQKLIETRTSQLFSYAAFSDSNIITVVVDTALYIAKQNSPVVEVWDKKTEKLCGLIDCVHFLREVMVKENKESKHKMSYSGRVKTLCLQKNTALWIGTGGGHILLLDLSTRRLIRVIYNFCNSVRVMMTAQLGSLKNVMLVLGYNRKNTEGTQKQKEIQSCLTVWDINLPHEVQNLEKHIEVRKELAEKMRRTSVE
Chain of UniProt P54756 (whole entry, looked up): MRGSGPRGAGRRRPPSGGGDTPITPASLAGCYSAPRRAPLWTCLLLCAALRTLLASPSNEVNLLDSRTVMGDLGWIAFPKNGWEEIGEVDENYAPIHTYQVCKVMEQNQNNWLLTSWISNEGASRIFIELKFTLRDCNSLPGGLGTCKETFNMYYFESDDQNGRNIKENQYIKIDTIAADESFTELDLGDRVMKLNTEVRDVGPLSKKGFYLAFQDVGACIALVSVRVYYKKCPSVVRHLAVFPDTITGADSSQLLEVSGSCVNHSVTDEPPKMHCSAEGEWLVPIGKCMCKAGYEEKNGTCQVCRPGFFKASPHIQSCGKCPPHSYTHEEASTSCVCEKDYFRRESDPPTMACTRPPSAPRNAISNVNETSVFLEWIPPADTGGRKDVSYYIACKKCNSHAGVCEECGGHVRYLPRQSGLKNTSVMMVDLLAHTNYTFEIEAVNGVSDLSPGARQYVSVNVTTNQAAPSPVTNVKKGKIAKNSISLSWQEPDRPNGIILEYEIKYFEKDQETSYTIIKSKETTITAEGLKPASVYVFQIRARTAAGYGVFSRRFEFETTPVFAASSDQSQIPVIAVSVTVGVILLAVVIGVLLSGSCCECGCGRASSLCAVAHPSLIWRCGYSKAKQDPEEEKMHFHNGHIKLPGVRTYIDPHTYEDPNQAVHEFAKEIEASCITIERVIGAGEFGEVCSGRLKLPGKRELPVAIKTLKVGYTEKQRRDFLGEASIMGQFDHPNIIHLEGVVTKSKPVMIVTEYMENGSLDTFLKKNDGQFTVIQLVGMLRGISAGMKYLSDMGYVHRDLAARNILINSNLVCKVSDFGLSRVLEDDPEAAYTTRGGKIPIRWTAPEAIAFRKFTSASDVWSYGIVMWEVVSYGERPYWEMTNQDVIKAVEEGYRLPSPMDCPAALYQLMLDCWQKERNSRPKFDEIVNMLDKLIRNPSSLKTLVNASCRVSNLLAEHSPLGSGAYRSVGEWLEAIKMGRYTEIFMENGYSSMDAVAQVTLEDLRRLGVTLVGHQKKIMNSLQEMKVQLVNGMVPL
Chain of UniProt P07948 (whole entry, looked up): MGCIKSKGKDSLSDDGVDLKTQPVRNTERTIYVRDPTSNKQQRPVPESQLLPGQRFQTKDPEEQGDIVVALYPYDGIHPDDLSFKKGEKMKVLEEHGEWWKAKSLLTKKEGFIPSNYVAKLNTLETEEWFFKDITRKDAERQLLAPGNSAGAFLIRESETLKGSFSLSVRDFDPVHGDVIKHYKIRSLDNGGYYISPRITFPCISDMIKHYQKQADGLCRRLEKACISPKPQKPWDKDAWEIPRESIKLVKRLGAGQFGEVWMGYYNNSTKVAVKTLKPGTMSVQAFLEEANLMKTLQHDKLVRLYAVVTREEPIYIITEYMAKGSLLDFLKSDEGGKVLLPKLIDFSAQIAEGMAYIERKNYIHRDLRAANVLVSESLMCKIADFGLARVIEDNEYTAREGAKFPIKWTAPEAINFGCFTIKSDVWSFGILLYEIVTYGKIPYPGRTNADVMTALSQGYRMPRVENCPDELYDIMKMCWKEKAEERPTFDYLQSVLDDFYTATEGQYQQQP

Set 1 — Structure (SMILES): COc1cccc(-c2cc(=O)c3ccccc3o2)c1N; effect on: enzyme activity; mode: inhibitor; concentration: 0.5 µM; relative to: control; endpoint: remaining activity
MKNK2 (Homo sapiens, UniProt Q9HBH9): 108%
MAP4K2 (Homo sapiens, UniProt Q12851): 81.7%
BTK (Homo sapiens, UniProt Q06187): 83.7%
KIT (Homo sapiens, UniProt P10721): 92.2%
CSNK1A1 (Homo sapiens, UniProt P48729): 95.6%
MAPK13 (Homo sapiens, UniProt O15264): 99.8%
CHEK1 (Homo sapiens, UniProt O14757): 103%
NEK4 (Homo sapiens, UniProt P51957): 93.4%
MAP3K10 (Homo sapiens, UniProt Q02779): 90%
STK38 (Homo sapiens, UniProt Q15208): 97.4%
LRRK2 (Homo sapiens, UniProt Q5S007): 101%
WNK2 (Homo sapiens, UniProt Q9Y3S1): 122%
MAP2K6 (Homo sapiens, UniProt P52564): 92.4%
IRAK4 (Homo sapiens, UniProt Q9NWZ3): 86.4%
AKT3 (Homo sapiens, UniProt Q9Y243): 101%
PRKCD (Homo sapiens, UniProt Q05655): 106%
Cyclin-dependent kinase 9, with cyclin T1 (CDK9, Homo sapiens, UniProt P50750): 93.6%
MAPK12 (Homo sapiens, UniProt P53778): 95.5%
PLK2 (Homo sapiens, UniProt Q9NYY3): 92.5%
EPHA5 (Homo sapiens, UniProt P54756): 97.9%
LYN (Homo sapiens, UniProt P07948): 94.6%
PRKG1 (Homo sapiens, UniProt Q13976): 111%
PRKCI (Homo sapiens, UniProt P41743): 97.3%
CSNK2A1 (Homo sapiens, UniProt P68400): 94.9%

Set 2 — cell line: HaCaT; concentration: 100 µM; time: 18 h; endpoint: viability
CCCCN1CCCC[C@H]1C(=O)Nc1c(C)cccc1C: 98.8%
CC(C)c1ccc2oc3nc(N)c(C(=O)O)cc3c(=O)c2c1: 90.1%
C[N+]1(C)CCC(=C(c2ccccc2)c2ccccc2)CC1: 124%
COc1ccccc1OCC(O)COC(N)=O (stereo not shown): 91.9%
CCN1CCN(c2cc3c(cc2F)c(=O)c(C(=O)O)cn3C2CC2)CC1: 121%
C[C@]12CC[C@@H]3c4ccc(OC(=O)c5ccccc5)cc4CC[C@H]3[C@@H]1CC[C@@H]2O: 18%
CCN1CCN(c2cc(-c3ccc(F)cc3)c3c(n2)CCCCCC3)CC1: 80.8%
CS(=O)(=O)c1ccc(C(=O)Nc2ccc(Cl)c(-c3ccccn3)c2)c(Cl)c1: 73.4%
COc1ccc2cc1Oc1ccc(cc1)C[C@H]1c3c(cc4c(c3Oc3cc5c(cc3OC)CCN(C)[C@@H]5C2)OCO4)CCN1C: 21.4%

Set 3 — effect on: enzyme activity; concentration: 10 µM; relative to: untreated control; endpoint: remaining activity
SMILES: Cc1sc(C(=O)NC2COC2)cc1-n1cc(NC(=O)Nc2c(F)cccc2Cl)cn1
SGK2 (Homo sapiens, UniProt Q9HBY8): 94%
CAMK2A (Homo sapiens, UniProt Q9UQM7): 99%
PRKX (Homo sapiens, UniProt P51817): 79.1%
KSR1 (Homo sapiens, UniProt Q8IVT5): 103%
Cyclin-dependent kinase 4, with cyclin D3 (CDK4, Homo sapiens, UniProt P11802): 94.5%
MAPK8 (Homo sapiens, UniProt P45983): 74.2%
CHUK (Homo sapiens, UniProt O15111): 93.7%
MYLK4 (Homo sapiens, UniProt Q86YV6): 109%
TNK2 (Homo sapiens, UniProt Q07912): 98.5%
SRMS (Homo sapiens, UniProt Q9H3Y6): 103%
LRRK2 (Homo sapiens, UniProt Q5S007): 101%
MYLK (Homo sapiens, UniProt Q15746): 102%

Set 4 — effect on: cell-free assay; technique: competition with immobilised ligand; concentration: 1 µM; endpoint: remaining binding
Compound: CC(=O)c1c(NS(C)(=O)=O)c2cc(-c3ccc(Cl)cc3)c(-c3ccc(Cl)cc3Cl)nc2n(C)c1=O
EPHA5 (Homo sapiens, UniProt P54756): 100%
EGFR (Homo sapiens, UniProt P00533, G719S): 100%
CLK1 (Homo sapiens, UniProt P49759): 100%
PIKFYVE (Homo sapiens, UniProt Q9Y2I7): 66%
SBK3 (Homo sapiens, UniProt P0C264): 95%
Tyrosine-protein kinase ABL1, phosphorylated (ABL1, Homo sapiens, UniProt P00519, M351T): 87%
KIT (Homo sapiens, UniProt P10721, D816V): 100%
AKT1 (Homo sapiens, UniProt P31749): 89%
EGFR (Homo sapiens, UniProt P00533, del752-759): 100%
TNIK (Homo sapiens, UniProt Q9UKE5): 93%
TAOK1 (Homo sapiens, UniProt Q7L7X3): 92%
PIK3C2B (Homo sapiens, UniProt O00750): 100%
PIK3CA (Homo sapiens, UniProt P42336, H1047Y): 96%

A few entries again (set 1):
MAP4K2 (Homo sapiens, UniProt Q12851): 81.7%
MAP2K6 (Homo sapiens, UniProt P52564): 92.4%
STK38 (Homo sapiens, UniProt Q15208): 97.4%
